Measured values from different studies.
Numbered parts are unrelated; each lists some results of a single study.

Block 1
Target: Replicase polyprotein 1ab, polymerase (rep, Severe acute respiratory syndrome coronavirus 2, UniProt P0DTD1)
Read-out: enzyme activity
Mode: inhibitor
Concentration: 20 µM
Quantity: inhibition
SMILES = O=C1c2ccccc2CCC1CNCCc1ccc(O)cc1 (stereo not drawn); value = 2.16%
SMILES = C[C@H](N=C(NC#N)Nc1cccc2ncccc12)c1ccccc1; value = -3.61%
SMILES = CC(C)(C)c1ccc(/C=C/C(=O)Nc2ccc3c(c2)OCCO3)cc1; value = -1.6%
SMILES = O=C(NCCN1CCC2(CC1)C(=O)NCN2c1cccc(F)c1)c1ccc2ccccc2c1; value = 1.16%
SMILES = c1cnc2cc3c(cc2n1)[C@@H]1CNC[C@H]3C1; value = -1.89%
SMILES = CC1(C)S[C@@H]2[C@H](NC(=O)Cc3ccccc3)C(=O)N2[C@H]1C(=O)O; value = 18.2%
SMILES = O=[N+]([O-])c1cc(Cl)ccc1S(=O)(=O)c1ccccc1; value = -2.49%
SMILES = CCN(CC)CCNC(=O)c1cc(Br)c(N)cc1OC; value = 5.62%
SMILES = CC1(C)O[C@H]2CC(=O)OC[C@]23[C@H]2CC[C@@]4(C)[C@H](c5ccoc5)OC(=O)[C@H]5O[C@]54[C@]2(C)C(=O)C[C@@H]13; value = -2.73%
SMILES = CCOc1cc2ncc(C#N)c(Nc3ccc(F)c(Cl)c3)c2cc1NC(=O)/C=C/CN(C)C; value = 0.05%
SMILES = Cn1cc(-c2ccc3nnc(C(F)(F)c4ccc5ncccc5c4)n3n2)cn1; value = 1.94%
SMILES = CCOc1ccccc1O[C@H](c1ccccc1)[C@H]1CNCCO1; value = -5.1%
SMILES = N#Cc1cnc2cnc(NCc3cccnc3)cc2c1Nc1ccc(F)c(Cl)c1; value = 9.3%
SMILES = COc1cccc(-c2ccc([C@@H](Oc3cc(-c4ccc(C[C@H](N)C(=O)O)cc4)nc(N)n3)C(F)(F)F)cc2)c1; value = 50.1%
SMILES = Cc1ccc(S(=O)(=O)NCl)cc1; value = -0.1%
SMILES = Cc1cccc(Cc2c[nH]cn2)c1C; value = -2.28%
SMILES = C[C@]12C=CC(=O)C=C1CC[C@@H]1[C@@H]2[C@@H](O)C[C@@]2(C)[C@H]1CC[C@]2(O)C(=O)COC(=O)CCC(=O)O; value = -6.15%
SMILES = Oc1c(Cl)cc(Cl)cc1Sc1cc(Cl)cc(Cl)c1O; value = 3.89%

Block 2
Target: Centromere-binding protein 1, full length, N-terminal tag (CBF1, Saccharomyces cerevisiae, UniProt P17106, residues 1-351)
UniProt P17106, sequence (whole entry, looked up): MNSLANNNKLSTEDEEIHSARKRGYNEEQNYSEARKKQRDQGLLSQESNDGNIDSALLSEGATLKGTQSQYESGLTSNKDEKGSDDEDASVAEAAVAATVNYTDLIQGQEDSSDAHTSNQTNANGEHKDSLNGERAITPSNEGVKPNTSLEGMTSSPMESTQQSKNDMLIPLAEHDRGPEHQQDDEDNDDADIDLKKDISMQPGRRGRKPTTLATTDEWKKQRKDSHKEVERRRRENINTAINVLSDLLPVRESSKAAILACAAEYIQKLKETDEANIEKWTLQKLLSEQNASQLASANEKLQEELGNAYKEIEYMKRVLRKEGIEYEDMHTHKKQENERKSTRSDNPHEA
Method: protein-binding microarray
Molecule type: double-stranded DNA, one strand shown
Medium: in vitro
Concentration: 0.8 µM
Setting: whole 60-bp probe, no competitor
Direction: higher = stronger binding
Quantity: fluorescence intensity
All sequences stand within: … GTCTTGATTCGCTTGACGCTGCTG
Sequence = CTACACATAGAAAGACACGTGGAAATAACAGTCTTC; value = 2320 a.u.
Sequence = CTAAGTAGACCAATTGACGTCATTTACTGAAACTTC; value = 516 a.u.
Sequence = CTAGAGTAAGAAGTACTCGTGCACATTTCAATGTTC; value = 657 a.u.
Sequence = CTATCTGCAATAAACCACATGGCTACCGCACTTTTC; value = 652 a.u.
Sequence = GAATAGGATATCCGTCACCCGTGATTCCGTCGGTAG; value = 952 a.u.

Block 3
Target: Fragile X messenger ribonucleoprotein 1, C-terminal low-complexity region (Fmr1, Mus musculus, UniProt P35922)
Method: RNA Bind-n-Seq
Molecule type: RNA
Medium: in vitro
Concentration: 200 nM
Setting: whole 134-nt RNA, ends assumed
Added: 150 mM KCl
Reference: input library
Direction: higher = stronger binding
Quantity: log2 enrichment
All sequences stand within: GGGAGUUCUACAGUCCGACGAUC … UGGAAUUCUCGGGUGUCAAGG
Sequence = UUUGCUGAUUUCUGGCUGGCGGAUCAGCUGAACAGCCUGUCAGUGAUACUGAUGGACCUGGAAUAUAUGAUCUGCUUCUACAGUUUGGAG; value = -2.56
Sequence = UAGGUGUUAUCUUCAGGAAGGCACACUGGACCUGCUAAAUUAACAAAUGGAAAGAAAGCGUAAGUACUUGAAGACGUUUACAACUUCAGA; value = -1.44
Sequence = UGGGAGGUGGAUUUUGUUUAUUUUUUUACCUCAUUUCCAGGGGUGGGAAUUUUUUUUUAAUAUGUGUCAUGAAUAAAGUUGUUUUUGAAA; value = -0.0976
Sequence = UCAAGUCCUGUGCUACACAUCGUAUGUACCGAAUCGGGUUGGGGUUGGGGUUGGGAAAGUAUUAUGUUACGCCGUUCGGAUCUGCACUUC; value = 1.3
Sequence = CUCAAGUCCUGUGCUACACAUCGUAUGUACCGAAUCGGAAAAAAAGGUGGUGGAAAGUAUUAUGUUACGCCGUUCGGAUCUGCACUUCCA; value = -0.103
Sequence = GCAGGAAGUAAAAACAAAUGGAAAUGCUUCGGAUAGUGGCAGGGGUGGGGGUUGCUAAGGAAAGGGUGGGAUGGGAGUGGGAAAAGAGUU; value = 0.00242
Sequence = UCCUGUGCUACACAUCGUAUGUACCGAAUCGGGGCCCCCGGGCCCCCGGGGCCCCCGGGGAAAGUAUUAUGUUACGCCGUUCGGAUCUGC; value = -0.834
Sequence = UCCUGUGCUACACAUCGUAUGUACCGAAUCGGGGUUUUUGGGGUUUUUGGGUUUUUGGGGAAAGUAUUAUGUUACGCCGUUCGGAUCUGC; value = 0.52

Block 4
Cell line: HEK-293T
Read-out: pseudovirus infection
Organism: VSV pseudotyped with SARS-CoV-2 spike
Concentration: 10 µM
Time: 16 h
Reference: vehicle-treated
Quantity: GFP-positive cells
Compound = O=c1ccc2ccc(OCCCCN3CCN(c4cccc5sccc45)CC3)cc2[nH]1; value = 74%
Compound = C[C@]12CC[C@H](O)CC1=CC[C@@H]1[C@@H]2CC[C@]2(C)C(c3cccnc3)=CC[C@@H]12; value = 91.3%
Compound = O=S(=O)(O)Oc1ccc(C(c2ccc(OS(=O)(=O)O)cc2)c2ccccn2)cc1; value = 76.8%
Compound = COc1cccc2c1C(=O)c1c(O)c3c(c(O)c1C2=O)C[C@@](O)(C(C)=O)C[C@@H]3O[C@H]1C[C@H](N)[C@H](O)[C@H](C)O1; value = 104%

Block 5
Target: Replicase polyprotein 1ab, main protease (rep, Severe acute respiratory syndrome coronavirus 2, UniProt P0DTD1)
Read-out: enzyme activity
Mode: inhibitor
Concentration: 20 µM
Setting: hit confirmation
Quantity: inhibition
SMILES = CCOC(=O)/C=C(C)/C=C/C=C(C)/C=C/c1c(C)cc(OC)c(C)c1C; value = 16%
SMILES = Cc1ccc2c(c1)C1CN(C)CCC1N2 (stereo not drawn); value = -10.6%
SMILES = CN1C(=O)C(N2CCCCC2)S/C1=C\C(=O)O (stereo not drawn); value = 72.9%
SMILES = CC(=O)N=c1sc(S(N)(=O)=O)nn1C; value = 12.3%

Some of these lines once more (block 1):
SMILES = CCOc1ccccc1O[C@H](c1ccccc1)[C@H]1CNCCO1; value = -5.1%
SMILES = O=[N+]([O-])c1cc(Cl)ccc1S(=O)(=O)c1ccccc1; value = -2.49%
